Assay results gathered from unrelated publications.
Lines come from different studies, so protocols differ.

SMILES | target | assay | test system | setting | scale | endpoint | value
CN(Cc1cc(C2CC2)on1)C(=O)c1cccc(-c2ccc3c(c2)CCO3)c1 | acetyl-CoA synthetase 1 (Aspergillus fumigatus) | enzyme activity, inhibitor, coupled pyrophosphate | – | 1 µM | higher is more activity | reaction rate | 0.00126 a.u.
N=C(NCC[C@H](NC(=O)c1noc(-c2cc(F)ccc2F)n1)c1nc2ccccc2[nH]1)c1ccc([N+](=O)[O-])o1 | STING pathway | inhibitor, immunoblot | mouse BMDM, wild type | 5 µM, 1 h pretreatment, added: diABZI | – | TBK1 and IRF3 phosphorylation | inhibited
c1ccc(-c2n[nH]cc2-c2ccnc3ccccc23)nc1 | orf19.3456 Candida albicans | kinase binding, MIB/MS competition | Candida albicans lysate | 10 µM | baseline: DMSO | log2 fold change | -0.46
Nc1ncc(-c2cc(-c3cnn(CC(F)(F)F)c3)ncc2F)nc1C(=O)NC1CNCC(F)C1 (centres unmarked) | CAMK2B | KINOMEscan | – | 1 µM | baseline: DMSO control | remaining binding | 96%
Cc1c(C)c2cccnc2c2ncccc12.O=[N+]([O-])[O-].O=c1c(C=NN=C([S-])Nc2ccccc2)coc2ccccc12.[Cu+2] | supercoiled pUC19 DNA | oxidative DNA cleavage | – | concentration not given, catalase 0.1 U, added: ascorbic acid | – | supercoiled DNA remaining | 86%
C=CC(=O)N1[C@@H](c2ccc3c(c2)OCO3)c2[nH]c3ccccc3c2C[C@H]1C(=O)N1CCN(C)CC1 | human cyclin E1 N112C-3xFLAG:CDK2 | co-IP with TMT proteomics, refers to: PCBP1 | – | concentration not given, Q15365 | baseline: wild type DMSO | relative co-enrichment | 136%
N=C(c1ccc([N+](=O)[O-])o1)N1CCC(NC(=O)c2cc(-c3ccc(F)cc3F)on2)(c2nc3ccccc3[nH]2)CC1 | STING pathway | inhibitor, RT-qPCR | mouse iBMDM | concentration not given, 2 h, added: diABZI 500 nM | – | IFNβ mRNA level | inhibited
C=CC(=O)Nc1cccc(Cn2ncc3cnc(Nc4cnn(CCOC)c4)nc32)c1 | SNRK human | binding, KINOMEscan | – | 100 nM | lower = stronger binding | percent of control | 89%

Excerpt of the above:
SMILES | target | assay | test system | setting | scale | endpoint | value
c1ccc(-c2n[nH]cc2-c2ccnc3ccccc23)nc1 | orf19.3456 Candida albicans | kinase binding, MIB/MS competition | Candida albicans lysate | 10 µM | baseline: DMSO | log2 fold change | -0.46
